Measured values collected from several papers.
Lines come from different studies, so protocols differ. “And” joins repeats or separate records; there may be more than shown.
Organism: Pseudomonas aeruginosa

SMILES	test	test system	conditions	how to read	quantity	result
CC[C@H](C)CCCCC(=O)N[C@@H](CCN)C(=O)N[C@H](C(=O)N[C@@H](CCN)C(=O)N[C@H]1CCNC(=O)[C@H]([C@@H](C)O)NC(=O)[C@H](CCN)NC(=O)[C@H](CCN)NC(=O)[C@H](CC(C)C)NC(=O)[C@@H](CC(C)C)NC(=O)[C@H](CCN)NC1=O)[C@@H](C)O		BAA-2797, mouse, BALB/c, peritonitis, peritoneal fluid	dose not given		peritoneal bacterial load	2.45 log CFU and 1.9 log CFU and 1.6 log CFU
COc1c(C)c(OS(=O)(=O)c2ccccc2)c(C)c(OS(=O)(=O)c2ccccc2)c1C(=O)/C=C/c1ccccc1	microbial killing, broth dilution	ATCC27853			MBC	> 5000 µg/mL
O=C(NCc1cc(Br)cc(Br)c1OC(=O)c1ccccc1[N+](=O)[O-])c1ccccc1Cl	elastin-Congo red	PAO1 wild type	100 µM, 20 h	reference: DMSO	elastase production	126%
CC(CCCOC(=O)CCC[N+](C)(C)C)C1CCC2C3CCC4CC(OC(=O)CCC[N+](C)(C)C)CCC4(C)C3CCC12C (stereo not shown)	microbial growth, disc diffusion	ATCC27853	250 µg/disc, 24 h		inhibition zone	10 mm
CN(C)S(=O)(=O)c1ccc(S(=O)(=O)N2CCC(n3c(=O)[nH]c4ccccc43)CC2)cc1		CIP 27853 wild type, Bombyx eri larvae	2.78 µg/larva		bacterial load	4.57 log CFU/larva and 4.28 log CFU/larva and 5 log CFU/larva and 6.44 log CFU/larva
CCCC(O)c1nn[nH]c1-c1ccc(O)c(OC)c1 (stereo not shown)	microbial growth, absorbance		100 µM, 24 h		activity vs control	93%
CCCCCCCCCC(=O)Oc1c(C)c(OC)c2c(c1C)OC(=O)C(CCCCCCCC)C2(O)C=Cc1ccccc1 (stereo not shown)	microbial growth, well diffusion	ATCC27853	5 µg/mL		inhibition zone	10 mm
CCCC(=O)C#Cc1ccc(F)c(F)c1	static biofilm	PA14	10 µM, 24 h, static	reference: DMSO	biofilm formation	66%
O=C(CCCOc1cccc(Br)c1)N[C@H]1CCSC1=O	elastin-Congo red	PAO1 wild type	100 µM, 20 h		elastase production	237%
CCCCCC(=O)Oc1c(C)c(OC)c2c(/C=C/c3ccccc3)c(CCCC)c(=O)oc2c1C	microbial killing, broth dilution	ATCC27853			MBC	> 5000 µg/mL

A few entries again:
SMILES	test	test system	conditions	how to read	quantity	result
CC(CCCOC(=O)CCC[N+](C)(C)C)C1CCC2C3CCC4CC(OC(=O)CCC[N+](C)(C)C)CCC4(C)C3CCC12C (stereo not shown)	microbial growth, disc diffusion	ATCC27853	250 µg/disc, 24 h		inhibition zone	10 mm
